Measurements from different studies.
Numbered parts are unrelated; each lists some results of a single study.
UniProt P28482, sequence (whole entry, looked up): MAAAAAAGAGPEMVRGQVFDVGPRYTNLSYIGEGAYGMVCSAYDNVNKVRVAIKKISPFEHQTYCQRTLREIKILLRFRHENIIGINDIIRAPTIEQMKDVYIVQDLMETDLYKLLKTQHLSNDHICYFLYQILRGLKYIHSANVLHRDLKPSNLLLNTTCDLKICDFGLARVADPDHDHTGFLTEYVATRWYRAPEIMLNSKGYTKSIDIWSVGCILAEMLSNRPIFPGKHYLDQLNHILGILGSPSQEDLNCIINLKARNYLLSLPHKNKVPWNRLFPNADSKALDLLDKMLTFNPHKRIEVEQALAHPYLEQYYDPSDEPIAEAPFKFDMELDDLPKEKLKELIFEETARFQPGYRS
UniProt Q13464, sequence (whole entry, looked up): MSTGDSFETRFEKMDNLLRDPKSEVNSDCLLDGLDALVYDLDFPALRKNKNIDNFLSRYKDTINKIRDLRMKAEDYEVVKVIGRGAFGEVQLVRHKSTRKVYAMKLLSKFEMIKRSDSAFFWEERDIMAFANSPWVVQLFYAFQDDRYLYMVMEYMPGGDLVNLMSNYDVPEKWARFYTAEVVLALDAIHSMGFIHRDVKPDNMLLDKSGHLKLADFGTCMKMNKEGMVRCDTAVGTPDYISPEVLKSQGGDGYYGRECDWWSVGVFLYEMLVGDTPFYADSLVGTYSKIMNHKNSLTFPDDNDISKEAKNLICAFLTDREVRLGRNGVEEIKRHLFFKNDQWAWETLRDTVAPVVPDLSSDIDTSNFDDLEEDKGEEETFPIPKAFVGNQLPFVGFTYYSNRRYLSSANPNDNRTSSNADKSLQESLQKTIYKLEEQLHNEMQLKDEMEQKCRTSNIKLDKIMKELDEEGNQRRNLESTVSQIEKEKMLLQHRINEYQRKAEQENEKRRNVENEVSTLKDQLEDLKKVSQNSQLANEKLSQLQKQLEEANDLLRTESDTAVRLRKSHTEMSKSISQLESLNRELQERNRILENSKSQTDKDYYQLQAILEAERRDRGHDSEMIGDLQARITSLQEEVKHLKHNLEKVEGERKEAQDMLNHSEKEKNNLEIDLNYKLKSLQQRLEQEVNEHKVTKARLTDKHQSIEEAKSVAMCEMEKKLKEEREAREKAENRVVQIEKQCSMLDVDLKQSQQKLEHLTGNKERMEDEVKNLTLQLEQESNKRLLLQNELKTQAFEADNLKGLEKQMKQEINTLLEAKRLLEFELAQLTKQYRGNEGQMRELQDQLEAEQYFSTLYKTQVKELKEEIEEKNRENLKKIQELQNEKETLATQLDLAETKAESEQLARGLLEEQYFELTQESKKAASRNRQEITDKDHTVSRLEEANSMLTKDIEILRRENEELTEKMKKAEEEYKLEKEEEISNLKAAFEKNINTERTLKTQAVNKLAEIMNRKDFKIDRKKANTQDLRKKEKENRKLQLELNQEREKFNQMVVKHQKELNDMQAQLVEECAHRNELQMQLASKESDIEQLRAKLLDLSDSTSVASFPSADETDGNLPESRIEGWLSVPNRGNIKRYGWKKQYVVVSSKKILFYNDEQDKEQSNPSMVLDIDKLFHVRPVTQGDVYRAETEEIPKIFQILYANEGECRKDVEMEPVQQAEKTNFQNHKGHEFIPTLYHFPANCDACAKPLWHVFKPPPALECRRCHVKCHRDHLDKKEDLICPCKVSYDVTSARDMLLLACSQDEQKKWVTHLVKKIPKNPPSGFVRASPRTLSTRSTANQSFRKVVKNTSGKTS
UniProt Q16566, sequence (whole entry, looked up): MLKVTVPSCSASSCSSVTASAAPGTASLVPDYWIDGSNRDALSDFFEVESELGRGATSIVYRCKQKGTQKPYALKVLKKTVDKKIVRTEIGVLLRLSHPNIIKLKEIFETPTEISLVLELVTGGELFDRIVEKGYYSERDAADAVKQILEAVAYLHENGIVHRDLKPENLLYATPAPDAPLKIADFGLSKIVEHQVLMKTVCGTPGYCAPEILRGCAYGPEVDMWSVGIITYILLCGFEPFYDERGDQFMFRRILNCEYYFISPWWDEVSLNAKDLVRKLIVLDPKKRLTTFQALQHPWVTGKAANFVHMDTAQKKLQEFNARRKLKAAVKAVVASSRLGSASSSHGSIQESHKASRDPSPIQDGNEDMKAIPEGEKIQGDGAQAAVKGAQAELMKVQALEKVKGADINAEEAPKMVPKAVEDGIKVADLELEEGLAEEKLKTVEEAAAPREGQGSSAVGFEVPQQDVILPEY
UniProt P51955, sequence (whole entry, looked up): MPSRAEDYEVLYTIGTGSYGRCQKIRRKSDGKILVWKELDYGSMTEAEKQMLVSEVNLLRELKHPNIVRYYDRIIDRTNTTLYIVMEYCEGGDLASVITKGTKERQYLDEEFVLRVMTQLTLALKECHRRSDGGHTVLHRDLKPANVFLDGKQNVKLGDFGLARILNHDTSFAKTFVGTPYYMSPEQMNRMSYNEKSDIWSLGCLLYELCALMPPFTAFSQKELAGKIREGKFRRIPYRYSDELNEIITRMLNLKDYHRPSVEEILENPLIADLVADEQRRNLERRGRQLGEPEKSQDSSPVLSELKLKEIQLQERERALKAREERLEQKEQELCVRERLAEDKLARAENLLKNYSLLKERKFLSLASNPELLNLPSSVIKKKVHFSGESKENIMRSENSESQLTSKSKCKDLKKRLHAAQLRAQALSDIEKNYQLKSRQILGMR
UniProt P00519, sequence (whole entry, unmodified, looked up): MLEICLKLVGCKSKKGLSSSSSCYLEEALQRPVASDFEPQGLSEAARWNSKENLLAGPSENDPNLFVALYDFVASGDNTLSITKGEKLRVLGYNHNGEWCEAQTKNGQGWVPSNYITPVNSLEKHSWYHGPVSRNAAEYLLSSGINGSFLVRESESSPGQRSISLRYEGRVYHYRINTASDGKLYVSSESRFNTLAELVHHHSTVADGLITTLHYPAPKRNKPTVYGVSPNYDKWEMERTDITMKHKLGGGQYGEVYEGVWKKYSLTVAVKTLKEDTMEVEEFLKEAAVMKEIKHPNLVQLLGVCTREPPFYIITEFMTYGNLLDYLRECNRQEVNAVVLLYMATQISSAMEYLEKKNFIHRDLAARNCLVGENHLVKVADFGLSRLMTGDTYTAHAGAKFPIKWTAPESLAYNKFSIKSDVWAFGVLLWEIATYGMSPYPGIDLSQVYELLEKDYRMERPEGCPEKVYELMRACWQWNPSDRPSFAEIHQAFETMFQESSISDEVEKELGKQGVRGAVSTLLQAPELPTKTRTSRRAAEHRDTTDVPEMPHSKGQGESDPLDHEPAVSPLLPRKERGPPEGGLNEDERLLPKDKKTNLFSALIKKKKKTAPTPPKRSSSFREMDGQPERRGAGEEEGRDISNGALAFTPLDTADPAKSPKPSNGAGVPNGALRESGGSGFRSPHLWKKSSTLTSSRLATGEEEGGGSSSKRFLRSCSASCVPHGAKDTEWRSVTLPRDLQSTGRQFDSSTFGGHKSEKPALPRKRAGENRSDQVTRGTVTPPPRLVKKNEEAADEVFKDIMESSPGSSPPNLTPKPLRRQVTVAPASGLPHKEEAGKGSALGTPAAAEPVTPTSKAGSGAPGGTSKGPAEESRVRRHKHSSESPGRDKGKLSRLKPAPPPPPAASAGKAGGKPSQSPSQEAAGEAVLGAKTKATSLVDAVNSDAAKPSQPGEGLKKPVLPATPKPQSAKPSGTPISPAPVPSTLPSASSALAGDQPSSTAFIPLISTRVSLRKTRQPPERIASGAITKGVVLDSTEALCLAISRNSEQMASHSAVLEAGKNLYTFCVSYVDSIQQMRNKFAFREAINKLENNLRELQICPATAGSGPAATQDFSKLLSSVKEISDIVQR
UniProt P57078, sequence (whole entry, looked up): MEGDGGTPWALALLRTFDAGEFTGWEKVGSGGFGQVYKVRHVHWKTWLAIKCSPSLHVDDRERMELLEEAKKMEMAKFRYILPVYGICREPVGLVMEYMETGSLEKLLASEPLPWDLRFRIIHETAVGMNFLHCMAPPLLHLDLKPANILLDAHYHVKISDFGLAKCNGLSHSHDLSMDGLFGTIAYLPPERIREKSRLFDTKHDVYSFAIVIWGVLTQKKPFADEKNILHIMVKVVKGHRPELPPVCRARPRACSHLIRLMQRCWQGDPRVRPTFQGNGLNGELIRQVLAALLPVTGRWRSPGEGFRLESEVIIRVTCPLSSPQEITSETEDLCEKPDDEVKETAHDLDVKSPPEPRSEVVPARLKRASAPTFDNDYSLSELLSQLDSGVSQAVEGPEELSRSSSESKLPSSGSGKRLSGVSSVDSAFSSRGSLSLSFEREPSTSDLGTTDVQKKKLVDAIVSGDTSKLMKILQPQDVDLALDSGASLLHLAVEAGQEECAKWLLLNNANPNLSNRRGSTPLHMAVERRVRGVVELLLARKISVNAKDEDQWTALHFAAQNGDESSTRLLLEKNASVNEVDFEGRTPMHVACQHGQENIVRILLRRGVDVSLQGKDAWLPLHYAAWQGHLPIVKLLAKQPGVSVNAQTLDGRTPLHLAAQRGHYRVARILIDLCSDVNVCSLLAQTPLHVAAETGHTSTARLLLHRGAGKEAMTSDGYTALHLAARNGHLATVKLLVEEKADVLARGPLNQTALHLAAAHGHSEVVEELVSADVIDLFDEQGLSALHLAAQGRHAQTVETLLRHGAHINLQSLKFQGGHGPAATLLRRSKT

Series 1
Target: Calcium/calmodulin-dependent protein kinase type II subunit alpha (CAMK2A, Homo sapiens, UniProt Q9UQM7)
UniProt Q9UQM7, sequence (whole entry, looked up): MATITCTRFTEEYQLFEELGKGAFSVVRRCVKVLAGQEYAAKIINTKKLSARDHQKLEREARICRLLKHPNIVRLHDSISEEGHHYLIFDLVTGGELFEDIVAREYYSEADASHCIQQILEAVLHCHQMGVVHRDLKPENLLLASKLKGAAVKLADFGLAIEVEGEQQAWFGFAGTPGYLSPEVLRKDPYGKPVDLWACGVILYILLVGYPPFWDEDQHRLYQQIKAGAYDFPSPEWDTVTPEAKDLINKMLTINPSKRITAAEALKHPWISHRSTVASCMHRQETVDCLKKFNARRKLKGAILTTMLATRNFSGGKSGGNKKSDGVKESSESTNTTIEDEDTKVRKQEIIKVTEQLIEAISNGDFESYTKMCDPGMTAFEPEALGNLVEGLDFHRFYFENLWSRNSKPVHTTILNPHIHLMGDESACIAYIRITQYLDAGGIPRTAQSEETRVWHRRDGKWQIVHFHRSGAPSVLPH
Effect on: enzyme activity
Action: inhibitor
Tested at: 10 µM
Structure (SMILES) | inhibition [%]
COc1ccc(-c2cc(=O)c3c(O)c(OC)c(O)cc3o2)cc1OC | 4
COc1cc(O)c2c(=O)c(O)c(-c3ccc(O)cc3)oc2c1 | 1
Nc1nc2c(ncn2COC(CO)CO)c(=O)[nH]1 | -3
CN1CCC[C@@H]1Cc1c[nH]c2ccc(CCS(=O)(=O)c3ccccc3)cc12 | -6
COc1cc2c(cc1O)CC[C@@H]1[C@@H]2CC[C@]2(C)[C@@H](O)CC[C@@H]12 | -18
Nc1c2ccccc2nc2ccccc12 | 16
CC(COc1ccccc1)N(CCCl)Cc1ccccc1 (stereo not drawn) | -6

Series 2
Compound: CO[C@@H]1[C@H](N(C)C(=O)c2ccccc2)C[C@H]2O[C@]1(C)n1c3ccccc3c3c4c(c5c6ccccc6n2c5c31)C(=O)NC4
Effect on: enzyme activity
Action: inhibitor
Tested at: 1 µM
target | inhibition [%]
Tyrosine-protein kinase ABL1, non-phosphorylated (ABL1, Homo sapiens, UniProt P00519, F317L) | 0
Serine/threonine-protein kinase Nek2 (NEK2, Homo sapiens, UniProt P51955) | 3
Serine/threonine-protein kinase N2 (PKN2, Homo sapiens, UniProt Q16513) | 63
Receptor-interacting serine/threonine-protein kinase 4 (RIPK4, Homo sapiens, UniProt P57078) | 11
Dual specificity mitogen-activated protein kinase kinase 4 (MAP2K4, Homo sapiens, UniProt P45985) | 0
Cyclin-dependent kinase 18 (CDK18, Homo sapiens, UniProt Q07002) | 0
Serine/threonine-protein kinase Sgk1 (SGK1, Homo sapiens, UniProt O00141) | 25
Mitogen-activated protein kinase 1 (MAPK1, Homo sapiens, UniProt P28482) | 0
Mitogen-activated protein kinase 12 (MAPK12, Homo sapiens, UniProt P53778) | 45
Dual specificity mitogen-activated protein kinase kinase 3 (MAP2K3, Homo sapiens, UniProt P46734) | 60
Receptor tyrosine-protein kinase erbB-4 (ERBB4, Homo sapiens, UniProt Q15303) | 16
Mitogen-activated protein kinase kinase kinase 10 (MAP3K10, Homo sapiens, UniProt Q02779) | 82

Series 3
Cell line: sample D normal colon organoid
Technique: CellTiter-Glo
Tested at: 0.1 µM
Notes: mean of replicates
Reference: DMSO
SMILES | viability [%]
O=C(Nc1ccc(-n2nc(-c3cccnc3)cc2C(F)(F)F)cn1)c1ccc(-c2ccccc2)c(F)c1 | 108
CNCc1ccccc1-c1csc([C@H](C)Nc2nc(C)nc3cc(OC)c(OC)cc23)c1 | 108
O=C(NCc1ncc(C(F)(F)F)cc1Cl)c1ccc2c(c1)C1(CCS(=O)(=O)CC1)[C@H](C1CC1)N2S(=O)(=O)c1ccc(F)cc1 | 109
Cc1cc(C)c(-n2ccn3nc(-c4cccnc4)cc23)cc1NC(=O)c1cc(C#N)cc(S(F)(F)(F)(F)F)c1 | 92.5
Cc1cc(Nc2nccc(C)n2)cc(-c2cnc([C@@]3(O)CC[C@H](C(=O)O)C(C)(C)C3)s2)c1 | 102
O=C(N[C@H]1CCCCC/C=C\C2C[C@@]2(C(=O)O)NC(=O)[C@@H]2C[C@@H](Oc3ccncc3)CN2C1=O)OC1CCCC1 (stereo partly drawn) | 102
CCCCN(CCCC)C(=O)CN1C[C@H](c2cc(OC)c3c(c2)OCO3)[C@@H](C(=O)O)[C@@H]1CC(C)(C)CCC | 105
C[C@@H]1CN(c2cc(-c3n[nH]c4ccc(OC5(C)CC5)cc34)ncn2)C[C@H](C)O1 | 97.8

Series 4
SMILES: N#C/C(=C\c1ccc(O)c(O)c1)C(=O)NCc1ccccc1
Effect on: enzyme activity
Action: inhibitor
Tested at: 0.5 µM
Reference: control
target | remaining activity
RAC-beta serine/threonine-protein kinase (AKT2, Homo sapiens, UniProt P31751) | 98.4%
Rho-associated protein kinase 1 (ROCK1, Homo sapiens, UniProt Q13464) | 99.7%
cGMP-dependent protein kinase 2 (PRKG2, Homo sapiens, UniProt Q13237) | 98.6%
Mitogen-activated protein kinase 1 (MAPK1, Homo sapiens, UniProt P28482) | 92.2%
Myosin-IIIb (MYO3B, Homo sapiens, UniProt Q8WXR4) | 88.3%
Cyclin-dependent kinase 1, with cyclin A (CDK1, Homo sapiens, UniProt P06493) | 92.8%
Mitogen-activated protein kinase 11 (MAPK11, Homo sapiens, UniProt Q15759) | 98.7%
Serine/threonine-protein kinase PLK3 (PLK3, Homo sapiens, UniProt Q9H4B4) | 96.1%
Mitogen-activated protein kinase 14 (MAPK14, Homo sapiens, UniProt Q16539) | 108%
Serine/threonine-protein kinase tousled-like 2 (TLK2, Homo sapiens, UniProt Q86UE8) | 105%
Cyclin-dependent kinase 9, with cyclin K (CDK9, Homo sapiens, UniProt P50750) | 102%
Serine/threonine-protein kinase DCLK2 (DCLK2, Homo sapiens, UniProt Q8N568) | 101%
Calcium/calmodulin-dependent protein kinase type IV (CAMK4, Homo sapiens, UniProt Q16566) | 97%
Misshapen-like kinase 1 (MINK1, Homo sapiens, UniProt Q8N4C8) | 97.9%
Vascular endothelial growth factor receptor 2 (KDR, Homo sapiens, UniProt P35968) | 95.8%

Some of these lines once more (series 3):
SMILES | viability [%]
CNCc1ccccc1-c1csc([C@H](C)Nc2nc(C)nc3cc(OC)c(OC)cc23)c1 | 108
CCCCN(CCCC)C(=O)CN1C[C@H](c2cc(OC)c3c(c2)OCO3)[C@@H](C(=O)O)[C@@H]1CC(C)(C)CCC | 105
O=C(N[C@H]1CCCCC/C=C\C2C[C@@]2(C(=O)O)NC(=O)[C@@H]2C[C@@H](Oc3ccncc3)CN2C1=O)OC1CCCC1 (stereo partly drawn) | 102
O=C(NCc1ncc(C(F)(F)F)cc1Cl)c1ccc2c(c1)C1(CCS(=O)(=O)CC1)[C@H](C1CC1)N2S(=O)(=O)c1ccc(F)cc1 | 109
C[C@@H]1CN(c2cc(-c3n[nH]c4ccc(OC5(C)CC5)cc34)ncn2)C[C@H](C)O1 | 97.8
